# Experimental data from different studies.
# Every numbered part comes from another study and shows a few of its results, in no order. Changes are numbered by the printed parent chain.

# Series 1 — technique: RNA Bind-n-Seq; molecule type: RNA; matrix: in vitro; concentration: not given; reference: input RNA pool; reading: higher = stronger binding
# Target: RING finger protein unkempt homolog, zinc fingers 1-6, GST-SBP tag (UNK, Homo sapiens, UniProt Q9C0B0, residues 30-357)
# Chain of UniProt Q9C0B0 (30-357, looked up): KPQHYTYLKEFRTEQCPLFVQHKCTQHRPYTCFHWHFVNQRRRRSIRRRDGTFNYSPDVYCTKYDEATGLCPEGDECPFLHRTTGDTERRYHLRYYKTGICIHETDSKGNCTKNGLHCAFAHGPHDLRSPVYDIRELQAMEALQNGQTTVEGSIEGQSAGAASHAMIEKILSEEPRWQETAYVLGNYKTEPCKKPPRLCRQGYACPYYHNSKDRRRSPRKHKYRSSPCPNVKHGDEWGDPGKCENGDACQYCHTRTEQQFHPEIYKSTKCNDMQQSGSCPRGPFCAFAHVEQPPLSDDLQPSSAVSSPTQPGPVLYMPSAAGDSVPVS
# Notes: RNA with constant flanks, human and mouse sites, ends assumed
Sequence,bound/input enrichment [ratio]
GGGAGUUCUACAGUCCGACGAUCUUUGCCACCCCGAGGAACAGCAGCUCAGCUUCAUUGAGCGCCUGGUGGAGAUGGCCAGCAGCUUGGCUAUCCGUGAGUGGAGGCGGCUGCCCCACGUGGUGUCCCAUGUGCAUACACCUCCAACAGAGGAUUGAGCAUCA,0.142
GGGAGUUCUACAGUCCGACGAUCAACAGAUUGUCUUUAAGCAUUCCAAGCGAGAAUGCUGGGGUGAUCAUUGUUGCCCAUGUGCCUUCUGACUGAGCUUUAAUGCUGUUCCAUGUUACAUCUUUCCUUCACUCCAGAAUUGUUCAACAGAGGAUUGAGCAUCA,0.138
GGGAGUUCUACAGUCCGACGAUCCCUAAUGGUGCAACCUUGCUGGUUGGUGGUUUUGGGCUGUGUGGUAUUCCAGAGAAUCUUAUAGGAGCUUUACUGAAGACUGGAGUAAAAGAUCUAACUGCAGUCAGCAACAAUGCAGGGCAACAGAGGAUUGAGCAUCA,0.159
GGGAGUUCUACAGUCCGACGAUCGUAGGUCAGGACCCUGUCAUGAGACAGGUGGAAGGAAAAAACCCAGUCACAAUAUUUUCUCUAGCAACAAAUGAGAUGUGGCGAUCAGGGGAUAGUGAAGUAUACCAAAUGGGUGACGUUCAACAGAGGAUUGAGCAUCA,3.82
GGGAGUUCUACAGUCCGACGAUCAAAGGGAAAUCUGUCCGUGUUCAUGUACAGUUCUUUGAUGACAGCCCAACAAGGGGCUGGGUUAGCAAAAGGAUGUUAAAGCCAUAUACAGGUUCAAAGUCAAAGGAAGCCCAAAAGGGACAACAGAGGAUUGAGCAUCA,0.227
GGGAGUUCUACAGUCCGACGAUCCCAGUAGAACCACAAGGGACUUCGGGUGCCACUCAGCAAGAUACUGCCAAAGGUGACCAACUAGAAAGAGUUUCUAAUGGACCUGUGUUAACUCUGGGUGGGUCACCGUCCACAAGCAGUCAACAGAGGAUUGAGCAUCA,0.178
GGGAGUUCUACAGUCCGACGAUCGAAUGCAGUUAUAUUUGGACCAGAAGGGACACCUUUUGAAGAUGGUACUUUUAAACUAGUAAUAGAAUUUUCUGAAGAAUAUCCAAAUAAACCACCAACUGUUAGGUUUUUAUCCAAAAUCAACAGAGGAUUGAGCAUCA,1.3
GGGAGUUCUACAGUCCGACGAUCAGCCUCAACACGCUGGAGCUUUUUGACAACCGGCUGACCACGGUGCCCACGCAGGCCUUCGAGUACCUGUCCAAGCUGCGGGAGCUCUGGCUGCGGAACAACCCCAUCGAGAGCAUCCCCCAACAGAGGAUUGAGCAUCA,0.0516
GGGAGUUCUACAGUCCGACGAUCAUUCCAGCAGUUGCAAAUUCCAGUGCAAAUAGUUCCCCAAGUGAACUGGCAGAUGAACUACCAGACAUGACACUAGACAAAGAGGAAAUAGCAAAAGACCUGUUGUCAGGUGAUGACGAGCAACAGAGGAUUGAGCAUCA,0.471
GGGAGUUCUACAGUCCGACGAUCGAAUACAUGUUACGACCACCACAACCUCCAGUGUACCUCUUUGUAUUUGAUGUAUCUCACAACGCAAUAGAAACUGGAUACUUGAAUUCAGUUUGCCAGAGUUUGUUAGACAAUCUGGAUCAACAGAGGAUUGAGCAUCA,0.141
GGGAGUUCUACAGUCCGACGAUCUUCUUGGACUUUUACAUAUGGAGGUUUUCAACCAGCGAUUAGAGCAAGAAUAUAACGCUUCUGUCAUUUUGACAACCCCAACUGUUCCAUACAAAGCUGUUCUUUCCUCUGCAAAAUUAACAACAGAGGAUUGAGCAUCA,0.0944

# Series 2 — technique: DHFR PCA, deep sequencing; matrix: yeast; added: (+)-ABA 0 µM; reference: wild-type fitted maximum; reading: higher = stronger binding
# Target: ABI1, truncated, D143A, DHFR fusion (Arabidopsis thaliana)
# Notes: methotrexate growth selection, single substitutions
# Parent: PYL1, truncated, DHFR fusion (Arabidopsis thaliana); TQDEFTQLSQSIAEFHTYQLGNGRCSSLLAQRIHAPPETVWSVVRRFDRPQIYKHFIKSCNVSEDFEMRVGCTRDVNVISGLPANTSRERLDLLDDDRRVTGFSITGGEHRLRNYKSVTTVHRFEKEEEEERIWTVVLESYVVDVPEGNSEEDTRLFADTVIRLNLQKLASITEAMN; partner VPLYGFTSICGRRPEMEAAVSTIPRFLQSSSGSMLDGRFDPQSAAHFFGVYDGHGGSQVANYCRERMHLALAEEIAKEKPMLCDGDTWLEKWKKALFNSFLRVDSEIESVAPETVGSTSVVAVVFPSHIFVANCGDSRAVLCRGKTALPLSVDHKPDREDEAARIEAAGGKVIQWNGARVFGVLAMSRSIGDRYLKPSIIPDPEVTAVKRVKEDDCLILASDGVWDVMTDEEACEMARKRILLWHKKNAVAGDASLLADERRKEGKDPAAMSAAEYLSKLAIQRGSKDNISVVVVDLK
Substitution,relative binding score [%]
V137S,0.459
E4K,4.19
S150T,43.5
Q51S,3.81
L94G,-3.44
P36Q,7.9
R98A,2.72
A84M,49.7
D153F,-9.19
L112P,5.9
R45M,3.15
R74P,1.72
N177D,45.2
D159I,-12.2
N177V,46.5
E130M,12
N165C,2.95
P83C,13.2
M68D,3.19

# Series 3 — technique: RNA Bind-n-Seq; molecule type: RNA; matrix: in vitro; concentration: 365 nM; reference: no-protein control; reading: higher = stronger binding
# Target: RNA binding protein fox-1 homolog 2, RRM domain, GST-SBP tag (RBFOX2, Homo sapiens, UniProt O43251-10, residues 100-194)
# Notes: natural RNA segment, single round, ends assumed
# Residues (chain): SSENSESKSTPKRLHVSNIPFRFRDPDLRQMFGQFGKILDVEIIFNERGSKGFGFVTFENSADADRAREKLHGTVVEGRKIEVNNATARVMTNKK
Sequence,RBNS enrichment (R)
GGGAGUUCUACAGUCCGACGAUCUCCAUCUUUCCACCGCACACCUGGACCAGGCUUGCAGGCUGCCAGACGUCACUCCACCCGCCAGGGAGAGGGGAGCCAGAGCCGGUGGGAAGCGGGGAGGGGCUGCGUGGUGGAAUUCUCGGGUGCCAA,0.617
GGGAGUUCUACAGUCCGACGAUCCAUCUGUGUUGACAUCGGGGCCAGAAAGCACAGCCAGCUAAAUGGGCCUCUGAGGUCACCUUCCCUUCCGGCCUGCUUGCUUUGUCUUACAAGACUUCUUGGCUUUUCCAUGGAAUUCUCGGGUGCCAA,0.781
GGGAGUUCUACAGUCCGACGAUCAGGCAUGAUCCUCUAUGGACACUAACUUACCCCAUGUCCACCUUUGCCCAAAAACACUGAAACUGUGCUCUCUGCCACCUGCCCCCCACGCUUUUUCUUUUUCUCUCUUUUGGAAUUCUCGGGUGCCAA,0.961
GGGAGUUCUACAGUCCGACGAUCAGCCCAGAUUUAUUUCAAUUCAAAUAUUACUGCUUCGUAAUUAUGAAGAGUAGUGCAAAUUUACAGAGCACUGUCAAAGACUGACAGAAAAAAAAAAGAUCUGCUCUGUAUGGAAUUCUCGGGUGCCAA,0.483
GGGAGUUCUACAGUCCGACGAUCGAGGGCAGAAUUCAACAAGCACAACUCACUGGUCUUUCAGUCAACGUGCUAGAAACCGAUGACUUAUUAAUCUCUAAUUUUUUGGCGCCUCUUUCAUUGAAUGAGAAUUGUGGAAUUCUCGGGUGCCAA,0.782
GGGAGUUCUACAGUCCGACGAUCCUCUUCUAUGUGGCAGGGGCUGAUAGGGCAAAAUAAAAUGACAAUUUCUUUAUUGCUACAGAGUAUCCUCUAUAAGUUAUUAAACGAGUGUAAUGGUAUAAUGCCCUUCCUGGAAUUCUCGGGUGCCAA,0.289
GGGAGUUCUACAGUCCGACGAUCGAGGAGGCCGAGCAGAAUACACCCCAGAGUUAGGGUUUGCGACUCCGCCUCCCUGGGACCUGGAUUGGGUCAGAUGCCUGUCCUUGGAGGGGACAAGGUUGACUGCUUAGUGGAAUUCUCGGGUGCCAA,0.492
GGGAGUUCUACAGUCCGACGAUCACAAAGCAUCCCUUAGAAGUCCAUGCUGGGCAGACAUUGAACACAGUGCCUUAUUAUGUUUCUCCCUUGAAUGCUUCAGUGUUUUGAGUCAUACUCUAGAAUGGACUGACUGGAAUUCUCGGGUGCCAA,0.776
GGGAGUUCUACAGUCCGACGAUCGAGAAUUGACAAGGAUGUAGAACAAGUGUUCCUUUCCAUCACACCUGCCAAGGGCAAAGCUACCUGGUAUCCAGGAAGAGAGCUCUGGUACCCUGUGCUUGUGUUUGUGUUGGAAUUCUCGGGUGCCAA,0.897
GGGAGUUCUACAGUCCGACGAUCGACCACACUCCAACACGGAGCUGGGGGCAUCGCUCCACAAAGACCUGCUGUGGGAAGAGGGUACUGAAUGGGCAAGAGCCUACAAGGUUCAGUCUAUGAUGGAGAGGGGAUGGAAUUCUCGGGUGCCAA,0.376
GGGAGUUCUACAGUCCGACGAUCGUGCUAUAGGUGACCAUCUGGUACAUUGAGGGGACCUGUUUGCCUCCUCCACUCUAUAAGCAGUCAUCUUGGGAGACCGGGAGGAGAAGGUGGUGGGCUAGUCCUGUGUCUGGAAUUCUCGGGUGCCAA,0.576
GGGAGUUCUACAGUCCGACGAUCCAAGUGCAGGGGCCUCCCUACGUUCUGUACCCUAAAUCCCAAGGUCAGGUUGGGGACCAACCUUGGGCUUAUCCACCCCCCAGUCUUCCCUCCCUCUCUUGCCAGCACAUUGGAAUUCUCGGGUGCCAA,1.6

# Series 4 — technique: universal PBM; molecule type: double-stranded DNA, one strand shown; matrix: in vitro; concentration: not given; reading: higher = stronger binding
# Target: Sal-like protein 4, full length isoform B (SALL4, Homo sapiens, UniProt Q9UJQ4-2, residues 1-616)
# Notes: 8-mer, flanks averaged, mean of replicates
# Construct (chain): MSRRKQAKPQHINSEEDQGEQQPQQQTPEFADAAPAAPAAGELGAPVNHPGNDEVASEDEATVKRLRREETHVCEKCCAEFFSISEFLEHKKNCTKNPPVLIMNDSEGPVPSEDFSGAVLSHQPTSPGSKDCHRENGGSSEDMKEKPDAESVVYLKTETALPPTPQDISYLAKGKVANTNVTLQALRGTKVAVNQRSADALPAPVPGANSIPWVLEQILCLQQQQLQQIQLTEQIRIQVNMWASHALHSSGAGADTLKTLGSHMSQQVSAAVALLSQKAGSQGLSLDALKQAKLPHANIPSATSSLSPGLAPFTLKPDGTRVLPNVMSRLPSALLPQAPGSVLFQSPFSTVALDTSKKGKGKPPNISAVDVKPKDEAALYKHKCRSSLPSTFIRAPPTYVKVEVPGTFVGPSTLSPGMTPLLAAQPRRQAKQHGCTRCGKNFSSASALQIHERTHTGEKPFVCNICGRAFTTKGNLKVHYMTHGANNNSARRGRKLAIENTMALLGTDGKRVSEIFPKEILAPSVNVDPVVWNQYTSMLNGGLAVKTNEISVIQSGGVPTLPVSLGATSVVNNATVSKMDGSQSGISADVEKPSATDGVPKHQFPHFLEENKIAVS
Sequence,E-score
CGAGTCCG,-0.0711
GCAGTATA,0.14
GACGTCCC,-0.272
AGCAGTAT,0.059
CGACCCAA,-0.0428
ACTCCTAG,-0.116
CATAACGA,0.189
CCGGCGAC,-0.333
CCTACCCG,-0.224
AATCTCAA,0.0715
CCGGAGCA,-0.223
ATACTCTA,0.222
ACATGCGG,-0.128
AAGTGAGG,-0.0629
ATATGAGC,0.264
CAAGCGAG,-0.0536
GATAATGA,0.288
ACTGCCAC,-0.063
CGGTTTAC,-0.0447
ACAGTAGT,0.111
ATGCCGTG,-0.129

# For quick reference, copied from above (series 3):
Sequence,RBNS enrichment (R)
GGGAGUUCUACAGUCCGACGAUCUCCAUCUUUCCACCGCACACCUGGACCAGGCUUGCAGGCUGCCAGACGUCACUCCACCCGCCAGGGAGAGGGGAGCCAGAGCCGGUGGGAAGCGGGGAGGGGCUGCGUGGUGGAAUUCUCGGGUGCCAA,0.617
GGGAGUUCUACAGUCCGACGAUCACAAAGCAUCCCUUAGAAGUCCAUGCUGGGCAGACAUUGAACACAGUGCCUUAUUAUGUUUCUCCCUUGAAUGCUUCAGUGUUUUGAGUCAUACUCUAGAAUGGACUGACUGGAAUUCUCGGGUGCCAA,0.776
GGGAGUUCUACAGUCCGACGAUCGACCACACUCCAACACGGAGCUGGGGGCAUCGCUCCACAAAGACCUGCUGUGGGAAGAGGGUACUGAAUGGGCAAGAGCCUACAAGGUUCAGUCUAUGAUGGAGAGGGGAUGGAAUUCUCGGGUGCCAA,0.376
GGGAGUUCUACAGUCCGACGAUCCUCUUCUAUGUGGCAGGGGCUGAUAGGGCAAAAUAAAAUGACAAUUUCUUUAUUGCUACAGAGUAUCCUCUAUAAGUUAUUAAACGAGUGUAAUGGUAUAAUGCCCUUCCUGGAAUUCUCGGGUGCCAA,0.289
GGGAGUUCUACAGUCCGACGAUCAGGCAUGAUCCUCUAUGGACACUAACUUACCCCAUGUCCACCUUUGCCCAAAAACACUGAAACUGUGCUCUCUGCCACCUGCCCCCCACGCUUUUUCUUUUUCUCUCUUUUGGAAUUCUCGGGUGCCAA,0.961
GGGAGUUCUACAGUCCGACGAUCGAGGAGGCCGAGCAGAAUACACCCCAGAGUUAGGGUUUGCGACUCCGCCUCCCUGGGACCUGGAUUGGGUCAGAUGCCUGUCCUUGGAGGGGACAAGGUUGACUGCUUAGUGGAAUUCUCGGGUGCCAA,0.492
